Published values of several laboratories.
Parts stem from different laboratories: compare values within a part only. Positions count from the first letter of the parent shown.

Block 1
Target: CCNF, cyclin fold, Cln2 fusion (human)
Technique: yeast growth competition, sequencing
Sample: yeast
Setting: strong parent motif
Baseline: not given
Direction: higher = stronger binding
Starting sequence: SCAPER docking peptide (human); SNARRSLNFGGST
Substitution	normalised enrichment score
S12P	8.07
N8V	5.56
L7E	-0.442
T13D	8.43
L7D	1.42
N2V	6.33
R4C	6.46
T13M	7.66
G11D	7.68

Block 2
Target: Centromere-binding protein 1, full length, His-tagged (CBF1, Saccharomyces cerevisiae, UniProt P17106, residues 1-351)
Sequence of UniProt P17106 (whole entry, looked up): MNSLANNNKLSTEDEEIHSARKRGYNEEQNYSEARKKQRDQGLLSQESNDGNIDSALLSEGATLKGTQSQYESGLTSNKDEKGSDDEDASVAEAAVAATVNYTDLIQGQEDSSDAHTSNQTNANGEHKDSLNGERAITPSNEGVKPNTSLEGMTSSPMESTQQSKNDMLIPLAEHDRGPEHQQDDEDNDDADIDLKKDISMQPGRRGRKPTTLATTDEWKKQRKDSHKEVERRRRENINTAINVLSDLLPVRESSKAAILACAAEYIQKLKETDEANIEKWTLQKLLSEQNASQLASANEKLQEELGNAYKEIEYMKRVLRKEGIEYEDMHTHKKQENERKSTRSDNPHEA
Technique: competition protein-binding microarray
Form: double-stranded DNA, one strand shown
Sample: in vitro
Tested at: 2 µM
Setting: whole 60-bp probe, lowest competitor level
With: Pho4 competitor, 0.05 µM
Direction: higher = stronger binding
All sequences stand within: … GTCTTGATTCGCTTGACGCTGCTG
Sequence	fluorescence intensity [a.u.]
CGCGCGCGGCCGGGCCATGTGAAGATTTTAACGGGC	89.2
CTTTCCCGATCTTTTCACGTGAGCTTAGCACATTTG	1060
CTTCTGTAAATTTGCAATGTGGGTGGACGCGCCCCG	79.2
ATGGGCCACTCTTTTCACGTGAAGCGCTCCAGGAAA	514
TGCGCAACAACTTGTCACCAAACTTTATGTCTAGAA	71.7
GCGCGAGAACATTACGACGCGCCTTCCCGTTAAATT	56.6
CTTCTGTAAATTTGTTGCGTGGGTGGACGCGCCCCG	72.1
CGGGGTTAAGTTTGGGAAGTGGGTGGCTTGCAGCAG	68.1
TGACATTGCCACCATCACGTTGTCAAACTTTGCCGG	308
CTTCTGTAAATTTGAAGCGTGGGTGGACGCGCCCCG	95.3

Block 3
Target: Histone acetyltransferase KAT6A, winged helix 1, GST fusion (KAT6A, Homo sapiens, UniProt Q92794, residues 1-85)
Technique: protein binding microarray
Form: double-stranded DNA, one strand shown
Sample: in vitro
Tested at: not given
Setting: 8-mer, flanks averaged, mean of 2 arrays, mostly near background
Baseline: not given
Direction: higher = stronger binding
Residues (chain): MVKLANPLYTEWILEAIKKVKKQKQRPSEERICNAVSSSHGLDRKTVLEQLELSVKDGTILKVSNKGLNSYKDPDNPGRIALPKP
Sequence	E-score
CCGCAGAC	0.243
CCAACCCC	-0.218
CACCGCTA	0.209
AATGCAAT	-0.121
GCCCGCAA	0.191
CGGTACCG	0.41
AAACTCTT	-0.289
CGAACGAC	-0.0838
GTGTAAGA	-0.203
CGTACCCC	0.237
CAGCTTGC	0.0712
ATCATACC	-0.0309
ACCATAGT	-0.0688

Single results of other studies
Substance	target	assay	test system	conditions	how to read	measurement	value
PhoQ, residues 284 288 289 292 302 303 SLCLSL	PhoP, residues 12 14 15 18 19 QQAYL (Escherichia coli, UniProt P23836)	Sort-seq, measured: YFP reporter	E. coli	PhoQ-PhoP variant library, with: 10 µM Mg2+	baseline: high Mg2+ state, higher = stronger signaling	fold induction	1.08

Some of these lines once more (block 3):
Sequence	E-score
CCGCAGAC	0.243
CCAACCCC	-0.218
CACCGCTA	0.209
AATGCAAT	-0.121
